Assay results from different studies.
Lines come from different studies, so protocols differ. Several values in a cell are separate wells, animals, samples, runs or records. Numbers after ± are the reported error.

CC(C)=CCC/C(C)=C/Cn1ccn2cc(C(=O)NCc3ccc(F)cc3F)c(=O)c(O)c2c1=O  EC50 (human immunodeficiency virus 1; single-round vector infection; integrase G118R): 165 ± 5.4 nM
Cc1cc(/C=C/C#N)cc(C)c1Nc1nc(Nc2ccc3cc(C#N)ccc3c2)ncc1N  EC50 (HIV-1; viral replication, single-round infection; RT mutant V106A/F227L): 18.7 ± 2.1 nM
Nc1ncnc2c([C@@H]3N[C@H](CO)[C@@H](O)[C@H]3O)c[nH]c12  inhibition (Venezuelan equine encephalitis virus; viral replication; HeLa, SH3; 1.6 µM): 0.2%
O=C(NCc1cccs1)C1CCCN(Cc2cccc(-c3ccc(F)cc3F)c2)C1 (stereo not drawn)  AC50 (SARS-CoV-2; cytopathic effect, cell-based CPE; USA_WA1/2020; round 1, 5-point dilution): 14100 nM
O=C(NCc1ccc(F)cc1F)c1cn2c(c(O)c1=O)C(=O)NCC2  EC50 (human immunodeficiency virus 1; single-round vector infection; integrase R263K): 184 ± 36.5 nM
O=c1ccn([C@@H]2O[C@H](CO)[C@@H](O)[C@H]2O)c(=S)[nH]1  EC50 (Japanese encephalitis virus; viral replication; BHK-21): 4800 nM
Cc1cc(/C=C/C#N)cc(C)c1Nc1nc(Nc2ccc(/C=C/C#N)cc2)ncc1N  EC50 (HIV-1; viral replication, single-round infection; RT mutant M184V): 1.1 ± 0.2 nM
COC(CN1CCn2cc(C(=O)NCc3ccc(F)cc3F)c(=O)c(O)c2C1=O)OC  EC50 (human immunodeficiency virus 1; single-round vector infection; integrase G118R): > 33 nM
Cc1cn([C@H]2C[C@H](N=[N+]=[N-])[C@@H](CO)O2)c(=O)[nH]c1=O  EC50 (HIV-1; viral replication; human PBMC, subtype F 93BR020, dual-tropic clinical isolate): 7.64 ± 1.56 nM
Cn1c(Cn2ccc(C(F)(F)F)c(Oc3cc(Cl)cc(C#N)c3)c2=O)n[nH]c1=O  EC50 (HIV-1; viral replication, single-round infection; RT mutant G190S): 4.6 ± 1.2 nM
Cc1noc2c(NC3CCOCC3)cc(-c3cccc(C(F)(F)F)c3)nc12  efficacy (SARS-CoV-2; cytopathic effect; USA_WA1/2020; retest, 8-point, duplicates): 22.8%
CC(C)(C)[C@H](NC(=O)C(F)(F)F)C(=O)N1C[C@H]2[C@@H]([C@H]1C(=O)N[C@H](C#N)C[C@@H]1CCNC1=O)C2(C)C  EC50 (Norovirus; viral replication; HG23 replicon cells; 96 h): > 10000 nM
C[C@H](NP(=O)(OC[C@@]1(F)O[C@@H](n2ccc(N)nc2=O)C(F)(F)[C@@H]1O)Oc1ccccc1)C(=O)OCc1ccccc1 (stereo partly drawn)  EC50 (varicella-zoster virus; viral replication, plaque reduction; HEL fibroblasts, Oka, TK+): 2000 to 3000 nM
Cc1cc(/C=C/C#N)cc(C)c1Nc1ccnc(Nc2ccc(C#N)cc2)n1  EC50 (HIV-1; viral replication, single-round infection; RT mutant V111A): 0.3 ± 0.1 nM
CCCC(=O)OCSc1ccccc1C(=O)NCCC(N)=O  EC50 (HIV-1; viral replication; human PBMC, subtype E 93TH073, dual-tropic clinical isolate): 1850 ± 1240 nM
Cc1cc(/C=C/C#N)cc(C)c1-n1cnc2cnc(Nc3ccc(/C=C/C#N)cc3)nc21  EC50 (HIV-1; viral replication, single-round infection; RT mutant V106A/F227L): 11.2 ± 2.2 nM
N#CC(C#N)=NNc1cccc(Cl)c1  EC50 (Cryptosporidium parvum; parasite growth, imaging; HCT-8; 24 h): 5000 nM
COC(Cn1ccn2cc(C(=O)NCc3ccc(F)cc3F)c(=O)c(O)c2c1=O)OC  EC50 (human immunodeficiency virus 1; single-round vector infection; integrase R263K): 4.4 ± 0.2 nM
CC[C@H](C)[C@H](NC(=O)[C@H](CC(C)C)NC(=O)[C@H](Cc1c[nH]c2ccccc12)NC(=O)[C@H](CCC(N)=O)NC(=O)[C@@H](NC(=O)[C@H](Cc1ccccc1)NC(=O)[C@H](C)NC(=O)[C@H](CCCCNC(=O)COCCOCCNC(=O)COCCOCCNC(=O)CC[C@H](NC(=O)CCCCCCCCCCCCCCCCCCC(=O)O)C(=O)O)NC(=O)[C@H](CCC(N)=O)NC(=O)[C@H](C)NC(=O)[C@@H](NC(=O)[C@H](CCCCN)NC(=O)[C@H](CC(=O)O)NC(=O)[C@H](CC(C)C)NC(=O)C(C)(C)NC(=O)[C@@H](NC(=O)[C@H](CO)NC(=O)[C@H](Cc1ccc(O)cc1)NC(=O)[C@H](CC(=O)O)NC(=O)[C@H](CO)NC(=O)[C@@H](NC(=O)[C@H](Cc1ccccc1)NC(=O)[C@@H](NC(=O)CNC(=O)[C@H](CCC(=O)O)NC(=O)C(C)(C)NC(=O)[C@@H](N)Cc1ccc(O)cc1)[C@@H](C)O)[C@@H](C)O)[C@@H](C)CC)[C@@H](C)CC)C(C)C)C(=O)N[C@@H](C)C(=O)NCC(=O)NCC(=O)N1CCC[C@H]1C(=O)N[C@@H](CO)C(=O)N[C@@H](CO)C(=O)NCC(=O)N[C@@H](C)C(=O)N1CCC[C@H]1C(=O)N1CCC[C@H]1C(=O)N1CCC[C@H]1C(=O)N[C@@H](CO)C(N)=O  subjects with treatment-emergent ADA (refers to: anti-drug antibodies; patients with type 2 diabetes; 0.5 mg, postbaseline, proof of concept): 0%
O=C1Nc2ccc(Cl)cc2[C@@](C#CC2CC2)(C(F)(F)F)O1  EC50 (HIV-1; viral replication, single-round infection; RT mutant K101P/V179I): 35.1 ± 2.9 nM
NC(=O)CCNC(=O)c1ccccc1S  EC50 (HIV-1; viral replication; human PBMC, subtype G G3, CCR5-tropic clinical isolate): 3940 ± 400 nM
Cc1cc2cc(C#N)ccc2c(C)c1Nc1ccnc(Nc2ccc(C#N)cc2)n1  EC50 (HIV-1 K103N/Y181C; viral replication; T-cells): < 10 nM
Cc1cc(/C=C/C#N)cc(C)c1-n1cnc2cnc(Nc3ccc4cc(C#N)ccc4c3)nc21  EC50 (HIV-1; viral replication, single-round infection; RT mutant V106A/F227L): 28.1 ± 1.9 nM
COCC(C)n1ccn2cc(C(=O)NCc3ccc(F)cc3F)c(=O)c(O)c2c1=O (stereo not drawn)  EC50 (human immunodeficiency virus 1; single-round vector infection; integrase G118R): 21.5 ± 1.3 nM
CNC(=O)[C@@H](NC(=O)[C@H](CC(C)C)[C@H](O)C(=O)NO)C(C)(C)C  remaining activity (Daboia russelii venom proteases (SVMP); protease activity, inhibitor; KL population; 1 µM, with: azocasein substrate; relative to: venom alone): 6.59% and 9.24% and 7.56%
CC(C)CCCC(C)CCN1CCn2cc(C(=O)NCc3ccc(F)cc3F)c(=O)c(O)c2C1=O (stereo not drawn)  EC50 (human immunodeficiency virus 1; single-round vector infection; integrase S230N): > 30 nM
Cn1cnc(Cn2c(=O)[nH]/c(=N\c3cc4cn(C)nc4cc3Cl)n(Cc3cc(F)c(F)cc3F)c2=O)n1  patients with adverse event (human, all renal function groups; oral, 375 mg, treatment-related decreased GFR, Mild severity): 0%
